Experimental data of several laboratories.
Every numbered part comes from another study and shows a few of its results, in no order.
Chain of UniProt Q9NYL2 (whole entry, looked up): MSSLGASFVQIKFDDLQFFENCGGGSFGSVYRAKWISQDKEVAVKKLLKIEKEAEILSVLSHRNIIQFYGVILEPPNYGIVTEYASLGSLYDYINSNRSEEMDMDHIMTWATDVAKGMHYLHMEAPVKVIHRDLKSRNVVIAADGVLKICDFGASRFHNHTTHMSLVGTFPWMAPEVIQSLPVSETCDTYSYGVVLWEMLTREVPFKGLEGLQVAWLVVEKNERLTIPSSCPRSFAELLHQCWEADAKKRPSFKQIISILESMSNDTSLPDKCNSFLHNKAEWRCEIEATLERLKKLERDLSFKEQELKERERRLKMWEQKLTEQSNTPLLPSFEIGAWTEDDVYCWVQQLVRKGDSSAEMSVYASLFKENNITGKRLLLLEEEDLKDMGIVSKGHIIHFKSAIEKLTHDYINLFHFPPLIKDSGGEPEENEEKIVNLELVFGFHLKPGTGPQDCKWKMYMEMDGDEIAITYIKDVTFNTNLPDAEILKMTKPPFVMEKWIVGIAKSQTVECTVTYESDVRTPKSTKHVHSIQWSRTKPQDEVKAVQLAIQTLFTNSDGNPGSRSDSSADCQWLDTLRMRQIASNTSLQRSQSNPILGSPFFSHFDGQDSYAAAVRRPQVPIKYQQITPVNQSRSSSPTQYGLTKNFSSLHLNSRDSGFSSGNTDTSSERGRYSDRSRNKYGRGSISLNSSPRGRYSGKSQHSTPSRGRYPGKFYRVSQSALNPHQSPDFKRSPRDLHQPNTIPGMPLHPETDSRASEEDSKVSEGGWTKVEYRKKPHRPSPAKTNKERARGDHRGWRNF
Chain of UniProt Q9UIK4 (whole entry, looked up): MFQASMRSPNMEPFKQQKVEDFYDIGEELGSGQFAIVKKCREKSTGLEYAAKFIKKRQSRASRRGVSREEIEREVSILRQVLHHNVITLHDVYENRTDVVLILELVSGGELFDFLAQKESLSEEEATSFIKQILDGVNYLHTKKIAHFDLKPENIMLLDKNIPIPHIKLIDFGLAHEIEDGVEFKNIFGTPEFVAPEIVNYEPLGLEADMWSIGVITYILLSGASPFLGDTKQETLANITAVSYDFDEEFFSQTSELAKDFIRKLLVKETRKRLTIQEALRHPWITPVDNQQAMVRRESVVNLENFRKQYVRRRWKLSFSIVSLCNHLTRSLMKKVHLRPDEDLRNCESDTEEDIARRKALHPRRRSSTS
Chain of UniProt P07948 (whole entry, looked up): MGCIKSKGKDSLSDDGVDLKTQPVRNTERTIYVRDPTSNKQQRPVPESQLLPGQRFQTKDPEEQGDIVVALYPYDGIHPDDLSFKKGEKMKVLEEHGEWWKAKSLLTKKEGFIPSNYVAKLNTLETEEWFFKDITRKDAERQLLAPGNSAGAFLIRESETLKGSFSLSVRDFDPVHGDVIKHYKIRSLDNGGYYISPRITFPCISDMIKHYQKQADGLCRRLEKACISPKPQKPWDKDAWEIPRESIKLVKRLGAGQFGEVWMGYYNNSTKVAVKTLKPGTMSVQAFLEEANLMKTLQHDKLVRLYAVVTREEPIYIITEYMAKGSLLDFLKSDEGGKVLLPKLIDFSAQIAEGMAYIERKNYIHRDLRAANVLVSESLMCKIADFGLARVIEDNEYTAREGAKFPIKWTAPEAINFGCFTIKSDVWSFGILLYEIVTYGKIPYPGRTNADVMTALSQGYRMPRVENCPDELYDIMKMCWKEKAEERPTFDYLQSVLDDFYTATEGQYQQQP
Chain of UniProt Q13976 (whole entry, looked up): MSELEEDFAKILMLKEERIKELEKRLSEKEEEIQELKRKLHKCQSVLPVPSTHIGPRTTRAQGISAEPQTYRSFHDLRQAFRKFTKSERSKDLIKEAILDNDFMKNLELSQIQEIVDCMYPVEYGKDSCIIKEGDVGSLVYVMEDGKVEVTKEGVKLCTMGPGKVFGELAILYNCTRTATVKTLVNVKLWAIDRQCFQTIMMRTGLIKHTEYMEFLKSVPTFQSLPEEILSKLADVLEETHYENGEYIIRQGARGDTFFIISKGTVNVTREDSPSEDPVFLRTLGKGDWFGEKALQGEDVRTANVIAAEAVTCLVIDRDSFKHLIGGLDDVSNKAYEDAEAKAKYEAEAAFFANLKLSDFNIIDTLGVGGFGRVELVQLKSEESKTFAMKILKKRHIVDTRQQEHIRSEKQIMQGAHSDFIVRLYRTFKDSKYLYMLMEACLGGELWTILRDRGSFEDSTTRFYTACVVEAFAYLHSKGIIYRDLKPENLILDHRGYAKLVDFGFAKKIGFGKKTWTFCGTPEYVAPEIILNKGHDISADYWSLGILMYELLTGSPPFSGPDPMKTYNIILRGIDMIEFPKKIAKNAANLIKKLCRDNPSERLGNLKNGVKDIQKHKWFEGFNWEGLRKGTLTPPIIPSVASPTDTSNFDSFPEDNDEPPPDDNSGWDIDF
Chain of UniProt O14920 (whole entry, looked up): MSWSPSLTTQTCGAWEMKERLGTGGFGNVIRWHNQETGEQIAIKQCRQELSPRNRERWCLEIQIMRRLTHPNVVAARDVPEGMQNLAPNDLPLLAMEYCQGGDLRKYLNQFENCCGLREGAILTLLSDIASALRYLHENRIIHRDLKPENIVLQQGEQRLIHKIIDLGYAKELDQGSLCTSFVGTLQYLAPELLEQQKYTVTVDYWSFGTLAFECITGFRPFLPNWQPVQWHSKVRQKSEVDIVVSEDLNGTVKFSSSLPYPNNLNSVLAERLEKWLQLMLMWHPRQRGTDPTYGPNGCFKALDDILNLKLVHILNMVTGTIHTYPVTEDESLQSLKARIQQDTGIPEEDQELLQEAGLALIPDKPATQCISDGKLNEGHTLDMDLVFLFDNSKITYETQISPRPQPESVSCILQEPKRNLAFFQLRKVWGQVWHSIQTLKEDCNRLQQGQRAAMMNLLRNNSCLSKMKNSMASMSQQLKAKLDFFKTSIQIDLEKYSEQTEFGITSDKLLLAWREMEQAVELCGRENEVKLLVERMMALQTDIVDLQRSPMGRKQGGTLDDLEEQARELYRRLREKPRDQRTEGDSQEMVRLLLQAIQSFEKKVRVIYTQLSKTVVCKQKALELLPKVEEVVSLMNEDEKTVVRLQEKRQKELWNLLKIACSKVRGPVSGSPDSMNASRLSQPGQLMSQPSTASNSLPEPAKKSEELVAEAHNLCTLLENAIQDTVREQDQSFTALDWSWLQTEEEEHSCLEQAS
Chain of UniProt Q13557 (whole entry, looked up): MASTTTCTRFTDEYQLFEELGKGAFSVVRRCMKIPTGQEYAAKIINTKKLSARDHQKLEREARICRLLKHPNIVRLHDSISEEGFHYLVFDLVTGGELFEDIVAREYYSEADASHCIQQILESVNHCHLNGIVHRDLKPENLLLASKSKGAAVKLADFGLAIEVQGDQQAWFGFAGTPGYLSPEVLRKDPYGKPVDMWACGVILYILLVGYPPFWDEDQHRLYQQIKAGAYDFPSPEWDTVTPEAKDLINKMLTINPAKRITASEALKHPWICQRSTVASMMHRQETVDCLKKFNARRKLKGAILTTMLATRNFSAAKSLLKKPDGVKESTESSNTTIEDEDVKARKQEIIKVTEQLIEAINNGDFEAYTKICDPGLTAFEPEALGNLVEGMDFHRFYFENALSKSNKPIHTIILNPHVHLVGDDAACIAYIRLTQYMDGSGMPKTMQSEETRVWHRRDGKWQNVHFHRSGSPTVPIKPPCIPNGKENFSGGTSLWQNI
Chain of UniProt O00444 (whole entry, looked up): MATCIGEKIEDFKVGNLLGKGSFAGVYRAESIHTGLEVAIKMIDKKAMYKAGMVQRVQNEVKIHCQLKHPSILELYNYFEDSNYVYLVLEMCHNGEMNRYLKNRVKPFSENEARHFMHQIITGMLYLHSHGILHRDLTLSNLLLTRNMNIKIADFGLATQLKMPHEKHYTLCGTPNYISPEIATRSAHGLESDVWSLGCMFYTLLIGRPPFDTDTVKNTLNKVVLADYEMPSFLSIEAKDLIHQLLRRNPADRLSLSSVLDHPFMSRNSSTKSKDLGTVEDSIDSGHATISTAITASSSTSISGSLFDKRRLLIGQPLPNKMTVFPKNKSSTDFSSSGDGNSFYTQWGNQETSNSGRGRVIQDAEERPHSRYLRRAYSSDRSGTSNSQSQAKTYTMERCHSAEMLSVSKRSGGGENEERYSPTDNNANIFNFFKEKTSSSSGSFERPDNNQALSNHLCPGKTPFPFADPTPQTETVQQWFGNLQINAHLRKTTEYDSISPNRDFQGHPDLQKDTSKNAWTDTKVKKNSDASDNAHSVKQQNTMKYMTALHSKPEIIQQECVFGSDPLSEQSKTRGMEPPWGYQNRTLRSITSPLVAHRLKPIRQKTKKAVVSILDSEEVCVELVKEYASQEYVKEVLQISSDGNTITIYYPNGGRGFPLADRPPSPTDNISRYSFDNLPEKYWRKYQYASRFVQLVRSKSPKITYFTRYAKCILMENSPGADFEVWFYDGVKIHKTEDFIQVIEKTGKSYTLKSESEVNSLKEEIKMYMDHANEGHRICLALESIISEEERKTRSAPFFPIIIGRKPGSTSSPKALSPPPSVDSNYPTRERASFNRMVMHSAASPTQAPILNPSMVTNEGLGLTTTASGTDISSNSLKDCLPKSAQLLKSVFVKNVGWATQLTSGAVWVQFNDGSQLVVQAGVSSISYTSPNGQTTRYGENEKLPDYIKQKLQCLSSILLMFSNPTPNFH
Chain of UniProt P45984 (whole entry, looked up): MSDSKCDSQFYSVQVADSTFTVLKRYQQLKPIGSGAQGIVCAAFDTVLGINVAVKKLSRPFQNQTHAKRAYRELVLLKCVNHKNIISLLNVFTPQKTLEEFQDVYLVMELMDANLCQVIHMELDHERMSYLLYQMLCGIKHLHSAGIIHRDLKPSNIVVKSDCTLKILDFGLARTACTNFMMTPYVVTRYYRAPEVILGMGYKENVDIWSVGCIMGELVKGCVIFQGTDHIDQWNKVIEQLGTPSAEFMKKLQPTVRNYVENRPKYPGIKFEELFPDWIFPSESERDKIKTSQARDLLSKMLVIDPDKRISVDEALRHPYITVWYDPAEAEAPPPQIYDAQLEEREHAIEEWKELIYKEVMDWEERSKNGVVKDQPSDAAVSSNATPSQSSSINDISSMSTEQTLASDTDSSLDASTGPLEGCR

Block 1 — mode: inhibitor; concentration: 10 µM; relative to: control
Target: Diamine acetyltransferase 1 (Homo sapiens, UniProt P21673)
Target sequence (P21673 1-171): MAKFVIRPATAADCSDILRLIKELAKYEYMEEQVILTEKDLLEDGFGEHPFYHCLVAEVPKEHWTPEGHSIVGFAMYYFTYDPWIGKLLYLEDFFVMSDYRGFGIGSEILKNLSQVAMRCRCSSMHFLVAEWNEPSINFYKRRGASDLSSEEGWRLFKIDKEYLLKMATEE
SMILES	remaining activity
O=c1ccoc2cc(O)ccc12	101%
NC(=O)c1ccc[n+]([O-])c1	96.8%
CC(C)=CCC/C(C)=C/CO	86.7%
CC1=CC=C(C(C)C)CC1	96.5%
CC(C)=CCC/C(C)=C/CC/C(C)=C/CC/C(C)=C/CC/C(C)=C/CC/C(C)=C/CC/C(C)=C/CC/C(C)=C/CC/C(C)=C/CO	98.5%
COC(=O)c1c(C)cc(O)c(C)c1O	102%

Block 2 — cell line: mouse MPNST tumor cells; method: high-content nuclear imaging; item: cell number; concentration: 10 µM; time: 12 h; setting: mean of 2 replicates; relative to: plate mean; reading: higher = more cells
Compound	nuclei count [z-score]
O=C1COc2nccc(-c3ccccc3F)c2CN1Cc1cc(C(F)(F)F)cc(C(F)(F)F)c1	-0.154
O=C(c1ccccc1)c1ccc2n1CCC2C(=O)O (stereo not shown)	0.537
CC(=O)[C@H]1CC[C@H]2[C@@H]3C=CC4=CC(=O)CC[C@@]4(C)[C@@H]3CC[C@]12C	1.92
CCOC(=O)[C@H](Cc1ccc([N+](=O)[O-])cc1)NC(=O)c1ccccc1	0.158
O=C(NN=Cc1ccccc1O)c1ccccc1O	-3.78

Block 3 — read-out: enzyme activity; mode: inhibitor; concentration: 0.5 µM; relative to: control
SMILES: Cc1cc(Nc2cc(N3CCN(C)CC3)nc(Sc3ccc(NC(=O)C4CC4)cc3)n2)[nH]n1
target	remaining activity
DAPK1 (Homo sapiens, UniProt P53355)	102%
Cyclin-dependent kinase 4, with cyclin D1 (CDK4, Homo sapiens, UniProt P11802)	97.4%
CAMK2D (Homo sapiens, UniProt Q13557)	87.1%
Cyclin-dependent kinase 5, with p25 (CDK5, Homo sapiens, UniProt Q00535)	93.8%
NEK2 (Homo sapiens, UniProt P51955)	105%
cGMP-dependent protein kinase 1, isoform beta (PRKG1, Homo sapiens, UniProt Q13976)	87.6%
Tyrosine-protein kinase Lyn, isoform B (LYN, Homo sapiens, UniProt P07948)	63.1%
DAPK2 (Homo sapiens, UniProt Q9UIK4)	98.2%
MAPK9 (Homo sapiens, UniProt P45984)	108%
PRKCA (Homo sapiens, UniProt P17252)	82%
IKBKB (Homo sapiens, UniProt O14920)	84.9%

Block 4 — read-out: cell-free assay; method: competition with immobilised ligand; concentration: 1 µM
SMILES: COc1cc(-c2cn(C3CCc4ccccc4N(CC(F)(F)F)C3=O)nn2)ccc1-n1ccc(C)n1 (stereo not shown)
target	remaining binding [%]
TESK1 (Homo sapiens, UniProt Q15569)	93
eIF-2-alpha kinase GCN2, C-terminal kinase domain (EIF2AK4, Homo sapiens, UniProt Q9P2K8, S808G)	100
GRK1 (Homo sapiens, UniProt Q15835)	80
PRKCQ (Homo sapiens, UniProt Q04759)	94
PLK4 (Homo sapiens, UniProt O00444)	73
MAP3K20 (Homo sapiens, UniProt Q9NYL2)	85

For quick reference, copied from above (block 1):
SMILES	remaining activity
CC(C)=CCC/C(C)=C/CO	86.7%
CC1=CC=C(C(C)C)CC1	96.5%
CC(C)=CCC/C(C)=C/CC/C(C)=C/CC/C(C)=C/CC/C(C)=C/CC/C(C)=C/CC/C(C)=C/CC/C(C)=C/CC/C(C)=C/CO	98.5%
COC(=O)c1c(C)cc(O)c(C)c1O	102%
